Assay results of several laboratories.
Cereblon/Ikaros: Cereblon/Ikaros (Homo sapiens, UniProt Q13422+Q96SW2)
MAOA: Amine oxidase [flavin-containing] A (MAOA, Homo sapiens, UniProt P21397)
Sequence of UniProt P21397 (whole entry, looked up): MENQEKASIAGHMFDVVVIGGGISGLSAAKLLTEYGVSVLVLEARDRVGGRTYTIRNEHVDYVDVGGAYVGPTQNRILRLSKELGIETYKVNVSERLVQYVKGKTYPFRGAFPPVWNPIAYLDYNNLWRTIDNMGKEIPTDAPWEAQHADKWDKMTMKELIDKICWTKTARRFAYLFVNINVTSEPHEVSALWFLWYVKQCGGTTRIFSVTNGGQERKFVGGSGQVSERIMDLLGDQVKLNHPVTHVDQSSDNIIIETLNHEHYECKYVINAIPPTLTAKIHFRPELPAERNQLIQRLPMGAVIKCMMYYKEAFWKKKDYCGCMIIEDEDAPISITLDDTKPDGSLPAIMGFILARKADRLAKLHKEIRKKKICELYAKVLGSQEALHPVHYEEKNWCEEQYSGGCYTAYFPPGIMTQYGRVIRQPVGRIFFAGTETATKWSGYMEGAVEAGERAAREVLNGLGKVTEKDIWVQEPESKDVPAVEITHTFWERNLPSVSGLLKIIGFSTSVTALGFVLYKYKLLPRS
MAPK8: Mitogen-activated protein kinase 8 (MAPK8, Homo sapiens, UniProt P45983)
Sequence of UniProt P45983 (whole entry, looked up): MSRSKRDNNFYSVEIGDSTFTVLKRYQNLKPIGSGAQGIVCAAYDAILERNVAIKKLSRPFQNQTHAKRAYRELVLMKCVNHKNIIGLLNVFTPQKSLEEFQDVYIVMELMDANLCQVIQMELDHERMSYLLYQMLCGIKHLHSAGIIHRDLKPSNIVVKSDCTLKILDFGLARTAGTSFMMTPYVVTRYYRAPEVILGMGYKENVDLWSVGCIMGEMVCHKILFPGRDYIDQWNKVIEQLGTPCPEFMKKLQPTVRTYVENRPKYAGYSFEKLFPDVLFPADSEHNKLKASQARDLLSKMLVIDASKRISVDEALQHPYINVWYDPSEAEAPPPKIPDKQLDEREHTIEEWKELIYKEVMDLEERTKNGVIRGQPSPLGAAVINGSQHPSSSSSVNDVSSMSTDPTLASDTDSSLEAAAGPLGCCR
IL1RL2: Interleukin-1 receptor-like 2 (IL1RL2, Homo sapiens, UniProt Q9HB29)
Sequence of UniProt Q9HB29 (whole entry, looked up): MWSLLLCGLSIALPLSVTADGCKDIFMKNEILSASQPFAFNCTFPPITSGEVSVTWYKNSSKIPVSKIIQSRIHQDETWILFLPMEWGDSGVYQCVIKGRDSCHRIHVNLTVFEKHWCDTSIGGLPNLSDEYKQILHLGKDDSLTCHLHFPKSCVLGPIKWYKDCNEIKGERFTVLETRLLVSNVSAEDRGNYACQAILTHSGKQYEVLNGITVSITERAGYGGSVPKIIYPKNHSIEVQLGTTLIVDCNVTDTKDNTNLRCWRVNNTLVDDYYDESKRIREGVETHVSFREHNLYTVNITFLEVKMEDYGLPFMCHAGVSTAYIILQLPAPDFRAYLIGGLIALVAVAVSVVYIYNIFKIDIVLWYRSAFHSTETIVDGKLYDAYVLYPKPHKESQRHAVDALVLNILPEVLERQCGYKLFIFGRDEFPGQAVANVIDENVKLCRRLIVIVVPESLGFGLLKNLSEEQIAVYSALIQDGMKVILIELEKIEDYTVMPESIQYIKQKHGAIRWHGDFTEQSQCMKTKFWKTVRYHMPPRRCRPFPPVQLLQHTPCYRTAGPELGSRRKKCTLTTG
Sequence of UniProt O75417 (whole entry, looked up): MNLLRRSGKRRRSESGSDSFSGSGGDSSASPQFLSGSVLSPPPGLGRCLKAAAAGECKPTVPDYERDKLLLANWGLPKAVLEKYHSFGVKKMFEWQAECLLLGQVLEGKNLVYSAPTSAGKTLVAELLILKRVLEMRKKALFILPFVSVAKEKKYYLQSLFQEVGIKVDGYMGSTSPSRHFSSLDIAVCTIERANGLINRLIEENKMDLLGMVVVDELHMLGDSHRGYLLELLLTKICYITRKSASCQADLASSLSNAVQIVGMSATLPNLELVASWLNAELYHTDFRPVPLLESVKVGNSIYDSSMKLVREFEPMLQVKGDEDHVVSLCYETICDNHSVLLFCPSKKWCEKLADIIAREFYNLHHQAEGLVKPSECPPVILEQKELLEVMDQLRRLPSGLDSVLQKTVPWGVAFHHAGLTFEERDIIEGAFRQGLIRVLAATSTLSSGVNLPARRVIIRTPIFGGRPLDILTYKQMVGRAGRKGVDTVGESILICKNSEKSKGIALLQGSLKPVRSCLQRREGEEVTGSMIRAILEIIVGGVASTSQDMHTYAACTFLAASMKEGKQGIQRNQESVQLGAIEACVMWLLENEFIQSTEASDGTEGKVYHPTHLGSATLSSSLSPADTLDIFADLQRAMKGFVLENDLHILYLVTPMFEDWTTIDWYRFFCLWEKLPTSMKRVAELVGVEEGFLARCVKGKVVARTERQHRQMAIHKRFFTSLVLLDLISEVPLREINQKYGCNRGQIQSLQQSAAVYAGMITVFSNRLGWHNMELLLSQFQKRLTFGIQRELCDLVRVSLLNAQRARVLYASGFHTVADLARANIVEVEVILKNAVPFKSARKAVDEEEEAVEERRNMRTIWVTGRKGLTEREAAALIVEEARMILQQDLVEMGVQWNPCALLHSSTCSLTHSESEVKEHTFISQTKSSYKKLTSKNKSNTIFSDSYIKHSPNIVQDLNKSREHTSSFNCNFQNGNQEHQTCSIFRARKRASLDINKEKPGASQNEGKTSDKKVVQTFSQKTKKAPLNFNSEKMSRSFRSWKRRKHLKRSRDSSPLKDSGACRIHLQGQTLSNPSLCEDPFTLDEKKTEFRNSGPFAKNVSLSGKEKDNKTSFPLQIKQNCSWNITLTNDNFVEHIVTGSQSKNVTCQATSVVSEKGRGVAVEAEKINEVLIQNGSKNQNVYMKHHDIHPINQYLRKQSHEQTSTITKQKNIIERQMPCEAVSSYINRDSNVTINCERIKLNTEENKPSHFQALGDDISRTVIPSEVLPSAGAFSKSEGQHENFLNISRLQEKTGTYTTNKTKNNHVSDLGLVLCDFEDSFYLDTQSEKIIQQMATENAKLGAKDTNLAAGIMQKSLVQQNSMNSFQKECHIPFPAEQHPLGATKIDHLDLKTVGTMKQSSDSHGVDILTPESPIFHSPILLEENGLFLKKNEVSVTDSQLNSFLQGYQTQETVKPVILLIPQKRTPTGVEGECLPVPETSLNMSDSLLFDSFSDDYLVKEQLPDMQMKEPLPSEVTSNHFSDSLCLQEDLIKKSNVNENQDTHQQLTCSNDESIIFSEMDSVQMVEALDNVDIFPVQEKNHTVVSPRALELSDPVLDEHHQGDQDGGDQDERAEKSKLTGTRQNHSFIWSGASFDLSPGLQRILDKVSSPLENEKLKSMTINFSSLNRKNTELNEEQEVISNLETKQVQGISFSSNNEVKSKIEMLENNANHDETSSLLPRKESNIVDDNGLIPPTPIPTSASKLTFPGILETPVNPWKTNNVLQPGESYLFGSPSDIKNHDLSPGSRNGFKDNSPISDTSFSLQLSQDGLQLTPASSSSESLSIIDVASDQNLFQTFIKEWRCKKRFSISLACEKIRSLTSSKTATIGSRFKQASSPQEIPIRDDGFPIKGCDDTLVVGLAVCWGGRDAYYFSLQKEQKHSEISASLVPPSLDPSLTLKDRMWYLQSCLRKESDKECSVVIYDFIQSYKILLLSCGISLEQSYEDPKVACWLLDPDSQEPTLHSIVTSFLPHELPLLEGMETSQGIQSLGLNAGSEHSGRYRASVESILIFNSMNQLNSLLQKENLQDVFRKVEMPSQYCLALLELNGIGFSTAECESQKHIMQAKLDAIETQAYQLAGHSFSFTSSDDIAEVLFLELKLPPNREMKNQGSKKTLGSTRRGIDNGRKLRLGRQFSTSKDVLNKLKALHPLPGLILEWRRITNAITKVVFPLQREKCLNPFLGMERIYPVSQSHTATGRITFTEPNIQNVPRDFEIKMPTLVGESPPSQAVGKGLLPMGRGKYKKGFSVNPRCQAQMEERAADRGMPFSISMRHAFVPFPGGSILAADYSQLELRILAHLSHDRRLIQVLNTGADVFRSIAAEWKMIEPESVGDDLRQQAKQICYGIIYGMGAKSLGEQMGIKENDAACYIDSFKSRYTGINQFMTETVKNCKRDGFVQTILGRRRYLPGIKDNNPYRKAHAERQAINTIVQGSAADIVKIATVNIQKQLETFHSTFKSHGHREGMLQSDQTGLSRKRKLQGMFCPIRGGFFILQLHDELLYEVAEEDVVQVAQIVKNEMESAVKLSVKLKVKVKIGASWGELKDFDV
Sequence of UniProt P09238 (whole entry, looked up): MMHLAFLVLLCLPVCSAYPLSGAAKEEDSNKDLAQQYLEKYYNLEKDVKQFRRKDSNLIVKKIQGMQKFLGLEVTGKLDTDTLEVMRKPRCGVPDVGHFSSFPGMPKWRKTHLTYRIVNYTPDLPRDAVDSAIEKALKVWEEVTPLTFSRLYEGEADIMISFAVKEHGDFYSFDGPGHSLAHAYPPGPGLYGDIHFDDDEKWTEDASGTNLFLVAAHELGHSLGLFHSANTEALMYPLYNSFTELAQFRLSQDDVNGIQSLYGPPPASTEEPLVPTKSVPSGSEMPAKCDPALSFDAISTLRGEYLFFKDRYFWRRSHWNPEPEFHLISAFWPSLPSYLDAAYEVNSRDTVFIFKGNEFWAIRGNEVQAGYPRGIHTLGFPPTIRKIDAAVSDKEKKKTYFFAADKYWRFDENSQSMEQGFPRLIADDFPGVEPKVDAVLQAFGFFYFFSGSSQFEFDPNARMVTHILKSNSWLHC
Sequence of UniProt P63085 (whole entry, looked up): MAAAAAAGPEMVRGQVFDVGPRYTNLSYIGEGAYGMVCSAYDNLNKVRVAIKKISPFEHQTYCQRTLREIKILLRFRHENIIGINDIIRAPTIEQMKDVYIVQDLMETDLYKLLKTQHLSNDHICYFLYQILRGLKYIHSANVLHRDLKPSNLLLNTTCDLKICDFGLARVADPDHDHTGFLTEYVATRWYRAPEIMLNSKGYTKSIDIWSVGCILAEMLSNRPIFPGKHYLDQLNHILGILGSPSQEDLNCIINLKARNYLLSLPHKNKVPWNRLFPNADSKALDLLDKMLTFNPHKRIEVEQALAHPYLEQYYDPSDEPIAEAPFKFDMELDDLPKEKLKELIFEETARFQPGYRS

| Structure (SMILES) | target | test | system | setting | scale | remaining activity |
| --- | --- | --- | --- | --- | --- | --- |
| COc1ccccc1-c1ccncc1C(=O)Nc1nnc(OCc2ccc(Cl)cc2)s1 | DNA polymerase theta, helicase domain (POLQ, Homo sapiens, UniProt O75417) | ATPase activity, ADP-Glo | – | 1.9 µM | relative to: 0 µM cpd | 18% |
| O=C1CCC(N2C(=O)c3cccc4c(Cc5ccc(CN6CCNCC6)nc5)ccc2c34)C(=O)N1 (stereo not shown) | Cereblon/Ikaros | protein level, degrader, western blot | NCI-H929 | 1 nM, 4 h | – | 98.7% |
| Cc1cnc2nc1Nc1cccc(c1)COC/C=C/COCc1cc(ccc1OCCN1CCOCC1)N2 | Epidermal growth factor receptor (EGFR, Homo sapiens, UniProt P00533, G719S) | – | – | concentration not given | relative to: untreated control | 95% |
| CC(C)c1ccc(/C=C/C(=O)c2ccc(F)cc2)cc1 | MAOA | enzyme activity, inhibitor | – | 10 µM | – | 51.4% |
| O=C1CCC(N2C(=O)c3cccc4c(Cc5cnn(C6CCN(C(=O)CS)CC6)c5)ccc2c34)C(=O)N1 (stereo not shown) | Cereblon/Ikaros | protein level, degrader, western blot | NCI-H929 | 1 nM, 4 h | – | 98.7% |
| O=S(=O)(O)c1cc(N=C=S)ccc1/C=C/c1ccc(N=C=S)cc1S(=O)(=O)O | DNA cross-link repair 1A protein (DCLRE1A, Homo sapiens, UniProt Q6PJP8) | exonuclease activity, inhibitor, fluorescence HTS | – | 10 µM, 80 min, with: 8 nM 5P-FQ substrate | – | 16.8% |
| O=C1CCC(N2C(=O)c3cccc4c(Cc5cnn(C6CCN(C(=O)C7(O)CC7)CC6)c5)ccc2c34)C(=O)N1 (stereo not shown) | Cereblon/Ikaros | protein level, degrader, western blot | NCI-H929 | 100 pM, 4 h | – | 79.6% |
| O=C(Cc1ccc(OCc2ccccc2)cc1)NC1(C(=O)O)CCN(C(=O)c2ccc(-c3cccc(Cl)c3)cc2)CC1 | Serine/threonine-protein kinase ATR (ATR, Homo sapiens, UniProt Q13535) | kinase activity, inhibitor | – | 10 µM, with: ATP at Km | – | 103% |
| COC(=O)c1ccc2c(c1)nc(NC(=O)c1ccccc1)n2CCCc1ccccc1 | Histone deacetylase 4 (HDAC4, Homo sapiens, UniProt P56524) | enzyme activity, inhibitor | – | 10 µM | – | 83% |
| CC(C)c1ccc(/C=C/C(=O)c2ccc(Br)s2)cc1 | MAOA | enzyme activity, inhibitor | – | about 2 × IC50, 30 min preincubation, after dialysis | – | 71.3% |
| O=C1CCC(N2C(=O)c3cccc4c(Cc5cnn(C6CCN(C(=O)CO)CC6)c5)ccc2c34)C(=O)N1 (stereo not shown) | Cereblon/Ikaros | protein level, degrader, western blot | NCI-H929 | 10 nM, 4 h | – | 14.2% |
| COC(=O)[C@@]1(C)C=C(C(=O)Nc2cccc(C(=O)Nc3ccc(Nc4nccc(-c5cccnc5)n4)c(C)c3)c2)C(=O)CC1 | MAPK8 | enzyme activity, inhibitor | – | 2.79e-05 µM, 6 h, unit not given, with: GSH 10 mM pre-incubation | relative to: vehicle | 0.965 |
| O=C1CCC(N2C(=O)c3cccc4c(Cn5cc(C6CCNCC6)nn5)ccc2c34)C(=O)N1 (stereo not shown) | Cereblon/Ikaros | protein level, degrader, western blot | NCI-H929 | 1 nM, 4 h | – | 87.5% |
| Cc1cccc(-c2ccc3nc(NC(=O)C4CCCCC4)nn3c2)c1 | Dual specificity tyrosine-phosphorylation-regulated kinase 3 (DYRK3, Homo sapiens, UniProt O43781) | enzyme activity, Dundee kinase panel | – | 10 µM | – | 19% |
| CC(C)c1ccc(/C=C/C(=O)c2ccc(Br)cc2)cc1 | MAOA | enzyme activity, inhibitor | – | 10 µM | – | 32.4% |
| COc1ccc(NC(=O)Nc2ccc3c(c2)C(=O)N(C(C)CO)CC(C)C(CN(C)Cc2ccc4c(c2)OCO4)O3)cc1 (stereo not shown) | Mitogen-activated protein kinase 1 (Mapk1, Mus musculus, UniProt P63085) | kinase activity, KinaseProfiler | – | 0.03 µM, species mouse | relative to: control | 78% |
| CC(C)(O)C(=O)N1CCC(n2cc(Cc3ccc4c5c(cccc35)C(=O)N4C3CCC(=O)NC3=O)cn2)CC1 (stereo not shown) | Cereblon/Ikaros | protein level, degrader, western blot | NCI-H929 | 1 nM, 4 h | – | 31.6% |
| C[C@](C(=O)NC1CCOCC1)(c1cncnc1)N(C(=O)[C@H](F)Cl)c1ccc(OC(F)(F)Cl)cc1 | Stromelysin-2 (Homo sapiens, UniProt P09238) | enzyme activity, inhibitor | – | 10 µM | – | 102% |
| CC(C)[C@@H]1NC(=O)[C@H](Cc2ccccc2)NC(=O)CSC[C@@H](C(N)=O)NC(=O)[C@H](CCC(=O)O)NC(=O)[C@H](CO)NC(=O)[C@H](Cc2c[nH]c3cccc(Cl)c23)NC(=O)[C@H](C2CCCCC2)NC(=O)[C@H](C(C)C)NC(=O)[C@H](Cc2ccc(O)cc2)NC(=O)[C@H](CC(=O)O)NC(=O)[C@H](Cc2c[nH]c3ccccc23)NC(=O)[C@H](Cc2ccc(N)nc2)NC(=O)[C@H](Cc2c[nH]c3ccc(Cl)cc23)NC(=O)[C@H](CCC(=O)O)NC1=O | IL1RL2 | reporter gene (SEAP), inhibitor, HEK-Blue IL-36R reporter | HEK-Blue IL-36R cells | 0.005 µM, 6 h, with: IL-36γ 30 ng/mL | – | 105% |
| COC(=O)[C@@]1(C(C)C)C=C(C(=O)Nc2cccc(C(=O)Nc3ccc(Nc4nccc(-c5cccnc5)n4)c(C)c3)c2)C(=O)CC1 | MAPK8 | kinase activity, inhibitor | – | 44.44 µM, unit not given, with: 10 mM glutathione | relative to: no inhibitor | 0.081 |
| N#Cc1cnc2sc(C(=O)O)cc2c1N1CCc2[nH]nc(C(=O)N[C@@H](CC(=O)NCCOCCN3CCOCC3)c3cccc(Br)c3)c2C1 | IL1RL2 | SEAP reporter gene, antagonist | HEK-Blue IL-36R cells | 100 µM, 6 h, with: IL-36β 0.003 ng/mL | relative to: untreated | 103% |
| O=C1CCC(N2C(=O)c3cccc4c(Cc5cnn(C6CCN(C(=O)C7(O)CCC7)CC6)c5)ccc2c34)C(=O)N1 (stereo not shown) | Cereblon/Ikaros | protein level, degrader, western blot | NCI-H929 | 1 nM, 4 h | – | 19.2% |

Repeated from above:
| Structure (SMILES) | target | test | system | setting | scale | remaining activity |
| --- | --- | --- | --- | --- | --- | --- |
| CC(C)c1ccc(/C=C/C(=O)c2ccc(Br)cc2)cc1 | MAOA | enzyme activity, inhibitor | – | 10 µM | – | 32.4% |
| COc1ccc(NC(=O)Nc2ccc3c(c2)C(=O)N(C(C)CO)CC(C)C(CN(C)Cc2ccc4c(c2)OCO4)O3)cc1 (stereo not shown) | Mitogen-activated protein kinase 1 (Mapk1, Mus musculus, UniProt P63085) | kinase activity, KinaseProfiler | – | 0.03 µM, species mouse | relative to: control | 78% |
